Published values collected from several papers.
Lines come from different studies, so protocols differ. Numbers after ± are the reported error.

Structure (SMILES) | cell line | test | test system | conditions | scale | endpoint | result
COc1cc(C(=O)c2[nH]c(N)nc2-c2cccs2)cc(OC)c1OC | HeLa or A549 cells | γ-tubulin immunofluorescence |  | 200 nM |  | multipolar mitotic spindles | 58%
COc1cc(CNC(=O)C[C@H](C)CCC=C(C)C)ccc1OCc1cn(-c2ccc(Br)cc2)nn1 | NCI/ADR-RES | SRB |  | 10 µM, 48 h |  | growth | 52.1%
N=C(N)NCCC[C@H](NC(=O)[C@H](Cc1c[nH]c2ccccc12)NC(=O)[C@H](CCC(N)=O)NC(=O)[C@H](Cc1c[nH]c2ccccc12)NC(=O)[C@H](CCCNC(=N)N)NC(=O)[C@H](Cc1c[nH]c2ccccc12)NC(=O)[C@H](CCC(N)=O)NC(=O)[C@H](Cc1c[nH]c2ccccc12)NC(=O)[C@@H](N)CCCNC(=N)N)C(N)=O | MDA-MB-468 | MTT |  | concentration not given, 48 h, 37 °C, 5% FBS | relative to: untreated cells | viability | 24 ± 2%
COc1cc(CNC(=O)C[C@H](C)CCC=C(C)C)ccc1OCc1cn(-c2cccc([N+](=O)[O-])c2)nn1 | NCI-H522 | SRB |  | 10 µM, 48 h |  | growth percent | 80.1%
Cc1cnc2c(ccc3c(C)c(C)cnc32)c1C.O=C([O-])Cc1ccccc1Nc1c(Cl)cccc1Cl.O=C([O-])Cc1ccccc1Nc1c(Cl)cccc1Cl.[Mn+2] | HMLER-shEcad |  |  | 0.25 µM, 3 h | relative to: untreated | intracellular ROS level | 2 fold
O=C(N1CCCC1)n1cc(-c2ccc(-c3ccccc3)cc2)nn1 | mouse T-cells | N-terminal labelling enrichment, item: TFG N-terminal peptides |  | 1 nM, 6 h, protein median | relative to: DMSO | SILAC ratio | 1.13 ± 0.09
COc1ccc([C@@H]2CC(=O)c3c(O)cc(O[C@@H]4O[C@H](CO[C@@H]5O[C@@H](C)[C@H](O)[C@@H](O)[C@H]5O)[C@@H](O)[C@H](O)[C@H]4O)cc3O2)cc1O | A549 | trypan blue exclusion |  | 150 µg/mL, 24 h |  | cell count | 7500 ± 366
CS(C)=O.CS(C)=O.[Cl][Cu][Cl].c1ccc(-c2nnc(-c3ccc4c(c3)OCO4)[nH]2)nc1 | T24 | PI flow cytometry |  | 5.3 µM, 24 h |  | cells in G0/G1 phase | 36.5%
O=Cc1c(O)ccc2ccccc12 | HUVEC | RNA sequencing, item: STC1 |  | 75 µM, 24 h | relative to: DMSO | log2 fold change | 3.12
COc1cc(CNC(=O)C[C@H](C)CCC=C(C)C)ccc1OCc1cn(-c2ccc([N+](=O)[O-])cc2)nn1 | SK-MEL-28 melanoma cells | SRB |  | 10 µM, 48 h |  | growth percent | 87.8%
CC1OC(Oc2c(-c3ccc(O)cc3)oc3cc(O)cc(O)c3c2=O)C(OC(=O)C=Cc2ccc(O)cc2)C(O)C1OC(=O)C=Cc1ccc(O)cc1 (centres unmarked) | mouse bone marrow macrophages | qRT-PCR |  | 5 µM, 24 h, outcome increased |  | M1 gene expression | increased
O=C1OCC2=C1C(c1cccc(Br)c1)C1=C(N2)C(=O)c2ccccc2C1=O (centres unmarked) | SK-LU-1 cells | annexin V/PI |  | 0.08 µM, 24 h |  | late apoptotic cells | 1.99%
CC/C=C\C/C=C\C/C=C\C/C=C\C/C=C\C/C=C\CCC(=O)Nc1ccn(C2OC(CO)C(O)C2(F)F)c(=O)n1 (centres unmarked) | NCI-H522 | NCI60 screen |  |  |  | TGI | 14.2 µM
C=C(C)[C@@H]1CC[C@]2(C(=O)OCO/N=[N+](\[O-])N3CCCC3)CC[C@]3(C)[C@H](CC[C@@H]4[C@@]5(C)CC[C@H](OC(C)=O)C(C)(C)[C@@H]5CC[C@]43C)[C@@H]12 | B16-F10 | Annexin V/PI flow cytometry |  | 0.25 µM, 36 h |  | Annexin V-positive cells | 8.27%
Cc1nn(-c2ccc(S(=O)(=O)N[C@@H](CO)CC(C)C)cc2)c2nn3nnnc3nc12 | HT-29 | PI/Hoechst staining |  | 2 µM, 24 h |  | apoptotic cells | 39 ± 5.7%
C=CC(OC(C)=O)c1cc(OC)c(OC(C)=O)c(OC)c1 (centres unmarked) | MDA-MB-231 | Western blot, item: phospho-Akt/Akt |  | concentration not given, 24 h |  | phospho-Akt reduction | 70 to 94%
COc1cc(CNC(=O)C[C@H](C)CCC=C(C)C)ccc1OCc1cn(-c2ccc(C#N)cc2)nn1 | NCI/ADR-RES | SRB |  | 10 µM, 48 h |  | growth | 14%
COc1ccc2c(-c3ccc(O)c(C)c3)ccnc2c1 | PBMC from rheumatoid arthritis patients |  |  | concentration not given |  | TNF-α level | decreased
CC(C)c1c(-c2cccc3[nH]ccc23)[nH]c(C(=O)O)c1-c1c(Cl)ccc2[nH]ccc12 | primary CD34+ AML cells |  | human | 25 µM, 12 days |  | CD86-positive cells | 97%
CCn1nc2c(c1Nc1nc(-c3ccc(-n4cnc(C)c4)c(OC)n3)cs1)CCCC2 | SH-SY5Y-APP | sandwich ELISA |  | 100 pM to 10 µM, 24 h |  | total amyloid beta level | no effect
COc1cc(CNC(=O)C[C@H](C)CCC=C(C)C)ccc1OCc1cn(-c2ccccc2)nn1 | SK-MEL-28 melanoma cells | SRB |  | 10 µM, 48 h |  | growth percent | 99.7%

Structure (SMILES) | cell line | test | test system | conditions | scale | endpoint | result
CC(=O)OC[C@H]1O[C@@H](Sc2sc(C(=O)c3ccc(Br)cc3)c(N)c2-c2nc3ccccc3s2)[C@H](OC(C)=O)[C@@H](OC(C)=O)[C@@H]1OC(C)=O | NCI/ADR-RES | SRB |  | 10 µM, 48 h |  | growth | 57.9%
CCCC(CCC)C(=O)[O][Pt]([NH2])([NH2])([Cl])([Cl])[O]C(=O)c1ccccc1OC(C)=O | six human cancer lines | cytotoxicity, MTT |  |  | relative to: oxaliplatin | IC50 fold lower | ~3 fold
CCC(=C(c1ccc(Cl)cc1)c1ccc(OCCCN(C)C)cc1)c1ccc(OC)cc1 | OVCAR-4 | cell growth or viability |  |  |  | GI50 | 5.25 µM
COC(=O)CCNC(=O)CNC(=O)CCn1nc(Cc2ccccc2)c2ccccc2c1=O | HCT-116 |  |  | concentration not given |  | G1 phase cells | 41.3%
FC(F)(F)c1ccnc(-c2cc(C(F)(F)F)ccn2)c1.FC(F)(F)c1ccnc(-c2cc(C(F)(F)F)ccn2)c1.[Cl-].[Cl-].[Ru+2].c1csc(-c2ccc(-c3ccc(-c4nc5c6cccnc6c6ncccc6c5[nH]4)s3)s2)c1 | SK-MEL-28 |  |  | normoxia, added: green light 523 nm |  | phototherapeutic index | 548
O=C1Nc2ccc(F)cc2C1=Cc1c(Cl)[nH]c2c1ccc1ccccc12 | CNS cancer subpanel of NCI-60 |  |  | 48 h |  | TGI | 6.46 µM
OCCNc1ccc(-c2nc3cc(OCCF)ccc3n3cccc23)cc1 | HEK293 DR-GFP reporter | homologous recombination |  | 48 h |  | concentration for near-complete inhibition | 30 to 40 µM
CCN(CC)CC(=O)Nc1cccc(-n2cc(-c3ccc4ccc(-c5cn(-c6cccc(NC(=O)CN(CC)CC)c6)nn5)cc4c3)nn2)c1 | RCC4 | ELISA | culture medium | 5 × IC50, 4 h | relative to: untreated | VEGF level | 71.6%
C=CCSc1nc(N)c2c(F)c(C#N)c(F)c(Cl)c2n1 | HCT-116 | DAPI staining imaging |  | 1.02 µM, 24 h |  | cells in G1 phase | 47.7%
O=C(Cn1c(=O)c(Cc2ccccc2)nc2ccccc21)OCCNCCO | HCT-116 | MTT |  |  | relative to: HCT-116 over normal colonocytes | selectivity index | 29.4
COc1cc(CNC(=O)C[C@H](C)CCC=C(C)C)ccc1O | SNB-75 CNS cancer cells | SRB |  | 10 µM, 48 h |  | growth percent | 56.8%
COc1ccc([C@@H]2CC(=O)c3c(O)cc(O[C@@H]4O[C@H](CO[C@@H]5O[C@@H](C)[C@H](O)[C@@H](O)[C@H]5O)[C@@H](O[C@H]5O[C@H](CO)[C@@H](O)[C@H](O)[C@H]5O)[C@H](O)[C@H]4O)cc3O2)cc1O | A549 | trypan blue exclusion |  | 150 µg/mL, 72 h |  | cell count | 10400 ± 702
CCOC(=O)C1NC(c2ccc[n+](C)c2)C23c4c5c6c7c8c9c(c%10c%11c2c2c4c4c%12c5c5c6c6c8c8c%13c9c9c%10c%10c%11c%11c2c2c4c4c%12c%12c5c5c6c8c6c8c%13c9c9c%10c%10c%11c2c2c4c4c%12c5c6c5c8c9c%10c2c45)C713 (centres unmarked) | BC-2 | cell growth or viability |  | 24 h |  | CC50 | 5.9 µM
CC(C)(C)C(=O)Nc1ccc2[nH]c(CN3CCC(N(CCCN4CCOCC4)CC4OC(n5cnc6c(N)ncnc65)C(O)C4O)CC3)nc2c1 (centres unmarked) | H460 wild type cells | tumorsphere formation |  | 5 µM, 7 to 14 days |  | inhibition | 56.4%
CC(=O)OC[C@H]1O[C@@H](Sc2sc(C(=O)c3ccc(C)cc3)c(N)c2-c2nc3ccccc3s2)[C@H](OC(C)=O)[C@@H](OC(C)=O)[C@@H]1OC(C)=O | Malme-3M | SRB |  | 10 µM, 48 h | relative to: untreated | growth | 43.9%
COc1cc(CNC(=O)C[C@H](C)CCC=C(C)C)ccc1OCc1cn(-c2ccc(Cl)c(Cl)c2)nn1 | SNB-75 CNS cancer cells | SRB |  | 10 µM, 48 h |  | growth percent | 47.2%
CCOC(=O)C(Cc1cccc(O)c1)OC(=O)C=Cc1ccc(O)c(O)c1C=Cc1ccc(O)c(O)c1 (centres unmarked) | human vascular smooth muscle cells |  |  | 10 µM |  | average cell length | ~60 µm
C=C[C@H](OC(C)=O)c1ccc(OC(C)=O)cc1 | MDA-MB-231 | Western blot |  | IC50, 24 h | relative to: untreated | p53 protein level | 3.3 fold
COc1cc([C@@H]2c3cc4c(cc3[C@@H](OCc3cc(-c5cccc(C#N)c5)no3)[C@H]3COC(=O)C23)OCO4)cc(OC)c1OC (some centres unmarked) | MIA PaCa-2 | cell growth or viability, SRB |  | 48 h |  | GI50 | 10.2 µM
C[C@H](NC(=O)[C@H](CCC(N)=O)NC(=O)[C@H](Cc1c[nH]c2ccccc12)NC(=O)[C@@H](N)CCCNC(=N)N)C(=O)N[C@@H](CCCNC(=N)N)C(=O)N[C@@H](Cc1c[nH]c2ccccc12)C(=O)N[C@@H](CCC(N)=O)C(=O)N[C@@H](Cc1c[nH]c2ccccc12)C(=O)N[C@@H](CCCNC(=N)N)C(N)=O | young human fibroblasts primary | MTT |  | concentration not given, 24 h, 37 °C, 5% FBS | relative to: untreated cells | viability | 79 ± 4%

Excerpt of the above:
Structure (SMILES) | cell line | test | test system | conditions | scale | endpoint | result
O=C1OCC2=C1C(c1cccc(Br)c1)C1=C(N2)C(=O)c2ccccc2C1=O (centres unmarked) | SK-LU-1 cells | annexin V/PI |  | 0.08 µM, 24 h |  | late apoptotic cells | 1.99%
CC/C=C\C/C=C\C/C=C\C/C=C\C/C=C\C/C=C\CCC(=O)Nc1ccn(C2OC(CO)C(O)C2(F)F)c(=O)n1 (centres unmarked) | NCI-H522 | NCI60 screen |  |  |  | TGI | 14.2 µM
C=C(C)[C@@H]1CC[C@]2(C(=O)OCO/N=[N+](\[O-])N3CCCC3)CC[C@]3(C)[C@H](CC[C@@H]4[C@@]5(C)CC[C@H](OC(C)=O)C(C)(C)[C@@H]5CC[C@]43C)[C@@H]12 | B16-F10 | Annexin V/PI flow cytometry |  | 0.25 µM, 36 h |  | Annexin V-positive cells | 8.27%
